Measurements of several laboratories.
Every numbered part comes from another study and shows a few of its results, in no order.
Sequence of UniProt Q06418 (whole entry, looked up): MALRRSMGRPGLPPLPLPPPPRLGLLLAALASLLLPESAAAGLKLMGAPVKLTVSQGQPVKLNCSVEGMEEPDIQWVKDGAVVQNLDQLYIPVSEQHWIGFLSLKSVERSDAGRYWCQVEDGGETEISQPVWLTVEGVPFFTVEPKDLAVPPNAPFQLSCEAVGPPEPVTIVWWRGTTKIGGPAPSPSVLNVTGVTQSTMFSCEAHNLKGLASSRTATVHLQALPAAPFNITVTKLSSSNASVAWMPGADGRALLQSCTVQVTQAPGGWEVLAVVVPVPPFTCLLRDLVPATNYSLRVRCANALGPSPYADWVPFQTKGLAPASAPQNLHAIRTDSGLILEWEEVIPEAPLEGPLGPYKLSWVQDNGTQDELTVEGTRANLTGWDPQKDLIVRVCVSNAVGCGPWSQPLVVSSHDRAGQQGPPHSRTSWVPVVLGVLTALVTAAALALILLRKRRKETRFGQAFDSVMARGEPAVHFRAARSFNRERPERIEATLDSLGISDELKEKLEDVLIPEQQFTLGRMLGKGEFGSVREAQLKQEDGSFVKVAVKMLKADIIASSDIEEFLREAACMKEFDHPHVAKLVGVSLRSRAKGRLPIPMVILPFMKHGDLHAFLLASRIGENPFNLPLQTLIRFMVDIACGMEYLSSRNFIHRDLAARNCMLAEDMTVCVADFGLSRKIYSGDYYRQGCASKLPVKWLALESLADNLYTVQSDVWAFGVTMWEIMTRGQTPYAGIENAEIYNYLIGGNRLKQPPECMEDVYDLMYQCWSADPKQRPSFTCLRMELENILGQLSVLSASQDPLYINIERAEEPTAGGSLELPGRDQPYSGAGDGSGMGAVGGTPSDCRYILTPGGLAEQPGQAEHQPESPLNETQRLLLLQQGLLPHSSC
Sequence of UniProt P15056 (whole entry, unmodified, looked up): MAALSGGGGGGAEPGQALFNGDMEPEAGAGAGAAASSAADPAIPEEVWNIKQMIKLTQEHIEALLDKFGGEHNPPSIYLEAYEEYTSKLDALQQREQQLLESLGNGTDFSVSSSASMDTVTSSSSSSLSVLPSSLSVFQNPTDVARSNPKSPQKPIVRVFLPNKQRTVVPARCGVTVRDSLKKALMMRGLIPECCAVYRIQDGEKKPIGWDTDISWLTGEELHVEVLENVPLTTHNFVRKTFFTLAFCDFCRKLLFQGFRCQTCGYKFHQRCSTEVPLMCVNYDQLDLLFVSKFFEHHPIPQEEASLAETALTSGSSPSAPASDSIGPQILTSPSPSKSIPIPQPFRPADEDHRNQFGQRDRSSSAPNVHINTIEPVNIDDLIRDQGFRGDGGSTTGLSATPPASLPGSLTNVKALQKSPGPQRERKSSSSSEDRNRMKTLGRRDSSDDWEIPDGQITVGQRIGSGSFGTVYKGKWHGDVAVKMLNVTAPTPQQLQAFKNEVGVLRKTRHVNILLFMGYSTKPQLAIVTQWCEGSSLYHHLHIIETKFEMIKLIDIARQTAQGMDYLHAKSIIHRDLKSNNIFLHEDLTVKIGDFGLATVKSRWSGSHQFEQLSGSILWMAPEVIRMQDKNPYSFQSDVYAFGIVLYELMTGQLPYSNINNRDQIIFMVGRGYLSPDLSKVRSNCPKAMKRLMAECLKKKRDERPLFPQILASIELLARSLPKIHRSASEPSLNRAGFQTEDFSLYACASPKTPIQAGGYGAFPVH
Sequence of UniProt P42679 (whole entry, looked up): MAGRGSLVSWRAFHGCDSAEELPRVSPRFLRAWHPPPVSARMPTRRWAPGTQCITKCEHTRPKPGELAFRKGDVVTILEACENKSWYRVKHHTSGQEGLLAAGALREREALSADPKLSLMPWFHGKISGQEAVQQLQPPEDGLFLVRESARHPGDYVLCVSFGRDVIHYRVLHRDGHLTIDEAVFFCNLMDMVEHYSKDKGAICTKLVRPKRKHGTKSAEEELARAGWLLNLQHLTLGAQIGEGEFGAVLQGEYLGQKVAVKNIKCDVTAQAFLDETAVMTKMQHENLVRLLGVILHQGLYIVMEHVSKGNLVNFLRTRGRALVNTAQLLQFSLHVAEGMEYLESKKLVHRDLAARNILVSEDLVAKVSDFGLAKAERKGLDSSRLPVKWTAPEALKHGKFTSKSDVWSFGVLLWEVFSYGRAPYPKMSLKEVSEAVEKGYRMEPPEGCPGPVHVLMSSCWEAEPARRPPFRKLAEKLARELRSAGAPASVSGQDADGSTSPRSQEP
Sequence of UniProt O43318 (whole entry, looked up): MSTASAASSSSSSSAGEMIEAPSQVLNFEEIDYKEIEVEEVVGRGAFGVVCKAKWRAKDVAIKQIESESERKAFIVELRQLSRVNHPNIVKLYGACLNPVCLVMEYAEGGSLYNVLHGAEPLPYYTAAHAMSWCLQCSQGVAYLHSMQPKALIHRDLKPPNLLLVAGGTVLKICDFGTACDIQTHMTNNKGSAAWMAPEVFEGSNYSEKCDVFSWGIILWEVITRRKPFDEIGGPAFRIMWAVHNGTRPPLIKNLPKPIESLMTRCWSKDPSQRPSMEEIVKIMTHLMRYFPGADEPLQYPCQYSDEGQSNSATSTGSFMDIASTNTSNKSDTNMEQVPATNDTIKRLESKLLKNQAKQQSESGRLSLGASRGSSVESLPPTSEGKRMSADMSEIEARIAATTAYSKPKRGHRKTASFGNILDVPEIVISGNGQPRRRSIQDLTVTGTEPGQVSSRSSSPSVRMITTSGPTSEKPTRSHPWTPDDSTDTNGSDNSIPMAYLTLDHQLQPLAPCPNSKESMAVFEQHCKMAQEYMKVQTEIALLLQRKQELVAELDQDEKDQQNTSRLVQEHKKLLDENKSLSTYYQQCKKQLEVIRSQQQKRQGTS
Sequence of UniProt Q8NFD2 (whole entry, looked up): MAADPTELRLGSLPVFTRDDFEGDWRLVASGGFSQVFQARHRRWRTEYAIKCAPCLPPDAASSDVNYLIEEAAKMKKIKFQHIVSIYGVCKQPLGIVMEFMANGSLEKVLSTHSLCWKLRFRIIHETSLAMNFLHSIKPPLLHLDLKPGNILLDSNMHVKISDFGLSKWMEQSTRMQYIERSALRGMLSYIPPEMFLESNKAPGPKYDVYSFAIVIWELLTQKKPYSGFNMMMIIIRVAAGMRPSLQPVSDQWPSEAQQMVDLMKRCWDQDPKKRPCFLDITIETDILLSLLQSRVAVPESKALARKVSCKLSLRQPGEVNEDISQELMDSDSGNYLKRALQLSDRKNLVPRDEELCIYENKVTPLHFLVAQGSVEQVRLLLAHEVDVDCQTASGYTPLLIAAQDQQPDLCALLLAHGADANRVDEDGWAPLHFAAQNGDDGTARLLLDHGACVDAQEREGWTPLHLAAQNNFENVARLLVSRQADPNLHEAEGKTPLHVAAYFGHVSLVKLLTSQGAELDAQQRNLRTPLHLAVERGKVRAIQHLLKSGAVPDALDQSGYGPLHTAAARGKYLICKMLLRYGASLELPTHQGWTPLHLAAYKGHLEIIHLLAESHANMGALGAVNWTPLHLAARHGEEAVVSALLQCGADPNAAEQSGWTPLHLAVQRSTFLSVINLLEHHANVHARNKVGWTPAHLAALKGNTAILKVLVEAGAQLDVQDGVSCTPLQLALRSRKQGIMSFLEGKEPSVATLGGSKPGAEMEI
Sequence of UniProt Q99640 (whole entry, looked up): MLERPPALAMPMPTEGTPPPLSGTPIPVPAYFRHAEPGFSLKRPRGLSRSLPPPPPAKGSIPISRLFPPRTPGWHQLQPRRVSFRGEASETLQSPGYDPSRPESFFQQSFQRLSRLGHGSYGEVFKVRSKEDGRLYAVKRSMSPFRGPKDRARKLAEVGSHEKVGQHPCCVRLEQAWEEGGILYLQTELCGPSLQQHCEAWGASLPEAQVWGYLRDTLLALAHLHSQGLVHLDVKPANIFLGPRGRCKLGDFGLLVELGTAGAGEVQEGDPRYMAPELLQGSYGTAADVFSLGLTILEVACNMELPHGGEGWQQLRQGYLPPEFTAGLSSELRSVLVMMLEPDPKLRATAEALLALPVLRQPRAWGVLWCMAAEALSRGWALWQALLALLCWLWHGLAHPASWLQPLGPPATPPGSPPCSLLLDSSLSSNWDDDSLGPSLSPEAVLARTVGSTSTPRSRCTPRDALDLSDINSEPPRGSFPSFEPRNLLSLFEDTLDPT
Sequence of UniProt P11309 (whole entry, looked up): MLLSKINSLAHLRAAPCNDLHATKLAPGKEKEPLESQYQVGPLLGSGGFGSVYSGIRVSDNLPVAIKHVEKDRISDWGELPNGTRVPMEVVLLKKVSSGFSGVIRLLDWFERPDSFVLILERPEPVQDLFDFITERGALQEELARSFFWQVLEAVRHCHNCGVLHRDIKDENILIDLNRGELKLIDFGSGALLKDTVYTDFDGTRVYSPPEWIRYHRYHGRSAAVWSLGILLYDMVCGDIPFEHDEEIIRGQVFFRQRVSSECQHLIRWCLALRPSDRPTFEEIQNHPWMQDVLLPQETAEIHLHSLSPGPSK

Study 1
Target: Calcium/calmodulin-dependent protein kinase type II subunit alpha (CAMK2A, Homo sapiens, UniProt Q9UQM7)
Sequence of UniProt Q9UQM7 (whole entry, looked up): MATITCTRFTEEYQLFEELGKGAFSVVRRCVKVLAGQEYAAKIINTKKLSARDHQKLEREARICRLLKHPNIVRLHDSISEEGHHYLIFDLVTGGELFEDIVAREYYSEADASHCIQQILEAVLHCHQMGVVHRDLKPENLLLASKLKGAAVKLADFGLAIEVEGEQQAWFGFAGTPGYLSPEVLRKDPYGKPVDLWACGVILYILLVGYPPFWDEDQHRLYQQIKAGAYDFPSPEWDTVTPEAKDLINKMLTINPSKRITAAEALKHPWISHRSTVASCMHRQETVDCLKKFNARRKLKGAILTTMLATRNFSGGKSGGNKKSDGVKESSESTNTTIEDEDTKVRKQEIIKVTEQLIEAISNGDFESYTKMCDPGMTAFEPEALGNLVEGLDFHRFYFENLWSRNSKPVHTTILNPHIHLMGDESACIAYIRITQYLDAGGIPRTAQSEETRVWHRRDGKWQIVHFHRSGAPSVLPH
Observed: enzyme activity
Action: inhibitor
Concentration: 10 µM
SMILES | inhibition [%]
CC1=C(C=O)C(C)(C)C[C@H](O[C@@H]2O[C@H](CO)[C@@H](O)[C@H](O)[C@H]2O)C1 | 19
O=C(OC[C@H]1O[C@@H](OC(=O)c2cc(O)c(O)c(OC(=O)c3cc(O)c(O)c(O)c3)c2)[C@H](OC(=O)c2cc(O)c(O)c(OC(=O)c3cc(O)c(O)c(O)c3)c2)[C@@H](OC(=O)c2cc(O)c(O)c(OC(=O)c3cc(O)c(O)c(O)c3)c2)[C@@H]1OC(=O)c1cc(O)c(O)c(OC(=O)c2cc(O)c(O)c(O)c2)c1)c1cc(O)c(O)c(OC(=O)c2cc(O)c(O)c(O)c2)c1 | 88
CN(C)c1ccc(O)c2c1C[C@H]1C[C@H]3[C@H](N(C)C)C(O)=C(C(N)=O)C(=O)[C@@]3(O)C(O)=C1C2=O | 2
COc1ccc(CCN(C)CCC[C@@](C#N)(c2ccc(OC)c(OC)c2)C(C)C)cc1OC | 4
CC(C)=C[C@@H]1CO[C@]23C[C@]4(CO2)[C@H](CC[C@@H]2[C@@]5(C)CC[C@H](O[C@@H]6OC[C@H](O)[C@H](O[C@@H]7O[C@H](CO)[C@@H](O)[C@H](O)[C@H]7O)[C@H]6O[C@@H]6O[C@@H](CO)[C@H](O)[C@H]6O)C(C)(C)[C@@H]5CC[C@]24C)[C@H]3[C@@]1(C)O | -9
CC1(C)CC[C@]2(C(=O)O)CC[C@]3(C)C(=CC[C@@H]4[C@@]5(C)CC[C@H](O[C@@H]6O[C@H](C(=O)O)[C@@H](O[C@@H]7O[C@@H](CO)[C@H](O)[C@H]7O)[C@H](O)[C@H]6O)C(C)(C)[C@@H]5CC[C@]43C)[C@@H]2C1 | -31
CCCCC(F)(F)[C@@]1(O)CC[C@H]2[C@@H](CC(=O)[C@@H]2CCCCCCC(=O)O)O1 | -4

Study 2
Medium: hydrocarbon/water
SMILES | logD
CCC[C@H]1NC(=O)CSC[C@@H](C(=O)OCC)N(C)C(=O)[C@H](CC(C)C)NC(=O)[C@H](C)N(C)C(=O)[C@H](CC(C)C)NC(=O)[C@H](C)N(C)C(=O)[C@H]2CCCN2C(=O)[C@@H](CC(C)C)NC(=O)CN(C)C1=O | 0.0634
CC(C)C[C@@H]1NC(=O)CN(CCCOC(C)C)C(=O)[C@H](C)NC(=O)[C@H](CC(C)C)N(C)C(=O)[C@H]2CCCN2C(=O)[C@H](Cc2ccccc2)NC(=O)CN(CC2CCOCC2)C(=O)[C@H](C)NC(=O)[C@H](CC(C)C)N(C)C(=O)[C@H]2CCCN2C1=O | 1.92
CCN1CC(=O)NC(CC(C)C)C(=O)N(C)C(C)C(=O)NC(CC(C)C)C(=O)N2CCCC2C(=O)N(CC2CCOCC2)CC(=O)NC(CC(C)C)C(=O)N(C)C(C)C(=O)NC(C)C(=O)N2CCCC2C1=O (stereo not drawn) | 0.455
CCC[C@@H]1NC(=O)[C@H](C)N(C)C(=O)[C@H](CC(C)C)NC(=O)Cn2cc(nn2)CN(C)C(=O)[C@H](CC(C)C)NC(=O)[C@H](C)N(C)C(=O)[C@H](CC(C)C)NC(=O)CN(CC)C(=O)[C@H]2CCCN2C1=O | -1.2
CCC[C@H]1C(=O)N[C@@H](CC2CCCCC2)C(=O)N(C)[C@@H](C)C(=O)N[C@@H](CC(C)C)C(=O)N(C)Cc2cn(nn2)CC(=O)N[C@@H](C2CCCCC2)C(=O)N(C)[C@@H](C)C(=O)N[C@@H](CC2CCCCC2)C(=O)N2CCC[C@@H]2C(=O)N1C | 2.8
CC(C)C[C@@H]1NC(=O)[C@H](Cc2ccccc2)N(C)C(=O)[C@H]2CCCN2C(=O)[C@H](CC(C)C)NC(=O)[C@H](CC(C)C)N(C)C(=O)[C@@H](C)N(C)C1=O | 2.38
CCC[C@@H]1NC(=O)[C@H](C)N(C)C(=O)[C@H](CC(C)C)NC(=O)Cn2cc(nn2)CN(C)C(=O)[C@H](CC(C)C)NC(=O)[C@H](C)N(C)C(=O)[C@H](CC(C)C)NC(=O)[C@H](CCC)N(C)C(=O)[C@H]2CCCN2C1=O | 0.14
CCN1CC(=O)NC(CC(C)C)C(=O)N(C)C(C)C(=O)NC(CC(C)C)C(=O)N2CCCC2C(=O)N(CC2CCCCC2)CC(=O)NC(CC(C)C)C(=O)N(C)C(C)C(=O)NC(Cc2ccccc2)C(=O)N2CCCC2C1=O (stereo not drawn) | 3.17
CCC[C@H]1C(=O)N[C@@H](CC(C)C)C(=O)N(C)[C@@H](C)C(=O)N[C@@H](CC(C)C)C(=O)N(C)Cc2cn(nn2)CC(=O)N[C@@H](CC(C)C)C(=O)N(C)[C@@H](C)C(=O)N[C@@H](CC(C)C)C(=O)N2CCC[C@@H]2C(=O)N1C | 0.624
CCC[C@H]1C(=O)N[C@@H](CC2CCCCC2)C(=O)N(C)[C@@H](C)C(=O)N[C@@H](CC(C)C)C(=O)N(C)Cc2cn(nn2)CC(=O)N[C@@H](CC(C)C)C(=O)N(C)[C@@H](C)C(=O)N[C@@H](CC(C)C)C(=O)N2CCC[C@@H]2C(=O)N1C | 1.6
CCCCCN1CC(=O)NC(CC(C)C)C(=O)N(C)C(C)C(=O)NC(C)C(=O)N2CCCC2C(=O)N(CC)CC(=O)NC(CC(C)C)C(=O)N(C)C(C)C(=O)NC(CC(C)C)C(=O)N2CCCC2C1=O (stereo not drawn) | 1.93
CC(C)C[C@@H]1NC(=O)[C@H](C)N(C)C(=O)[C@H](CC2CCCCC2)NC(=O)[C@H](CC(C)C)N(C)C(=O)[C@H]2CCCN2C(=O)[C@H](CC2CCCCC2)NC(=O)[C@H](C)N(C)C(=O)[C@H](C2CCCCC2)NC(=O)Cn2cc(nn2)CN(C)C1=O | 3.02

Study 3
SMILES: O=S(=O)(NC1CCC(c2cc(F)ccc2F)(S(=O)(=O)c2ccc(Cl)cc2)CC1)C(F)(F)F (stereo not drawn)
Concentration: 1 µM
target | observed | method | remaining binding [%]
Mitogen-activated protein kinase 6 (MAPK6, Homo sapiens, UniProt Q16659) | cell-free assay | competition with immobilised ligand | 100
Beta-adrenergic receptor kinase 1 (GRK2, Homo sapiens, UniProt P25098) | cell-free assay | competition with immobilised ligand | 73
Death-associated protein kinase 2 (DAPK2, Homo sapiens, UniProt Q9UIK4) | cell-free assay | competition with immobilised ligand | 96
cAMP-dependent protein kinase catalytic subunit alpha (PRKACA, Homo sapiens, UniProt P17612) | cell-free assay | competition with immobilised ligand | 100
Serine/threonine-protein kinase 17B (STK17B, Homo sapiens, UniProt O94768) | cell-free assay | competition with immobilised ligand | 97
Serine/threonine-protein kinase B-raf (BRAF, Homo sapiens, UniProt P15056) | cell-free assay | competition with immobilised ligand | 93
Tyrosine-protein kinase receptor TYRO3 (TYRO3, Homo sapiens, UniProt Q06418) | cell-free assay | competition with immobilised ligand | 70
Glycogen synthase kinase-3 alpha (GSK3A, Homo sapiens, UniProt P49840) | cell-free assay | competition with immobilised ligand | 87
Phosphatidylinositol 4,5-bisphosphate 3-kinase catalytic subunit alpha isoform (PIK3CA, Homo sapiens, UniProt P42336, E545A) | cell-free assay | competition with immobilised ligand | 95
Mitogen-activated protein kinase kinase kinase kinase 1 (MAP4K1, Homo sapiens, UniProt Q92918) | cell-free assay | competition with immobilised ligand | 96
Tyrosine-protein kinase ABL1, phosphorylated (ABL1, Homo sapiens, UniProt P00519, F317I) | binding | – | 100
Epidermal growth factor receptor (EGFR, Homo sapiens, UniProt P00533, G719C) | cell-free assay | competition with immobilised ligand | 100
Cyclin-dependent kinase 4 (CDK4, Homo sapiens, UniProt P11802) | cell-free assay | competition with immobilised ligand | 81
Megakaryocyte-associated tyrosine-protein kinase (MATK, Homo sapiens, UniProt P42679) | cell-free assay | competition with immobilised ligand | 100
Mitogen-activated protein kinase 4 (MAPK4, Homo sapiens, UniProt P31152) | cell-free assay | competition with immobilised ligand | 95
Serine/threonine-protein kinase pim-1 (PIM1, Homo sapiens, UniProt P11309) | cell-free assay | competition with immobilised ligand | 100
Tyrosine-protein kinase Tec (TEC, Homo sapiens, UniProt P42680) | binding | competition with immobilised ligand | 100
Mitogen-activated protein kinase kinase kinase 7 (MAP3K7, Homo sapiens, UniProt O43318) | cell-free assay | competition with immobilised ligand | 100
Receptor-type tyrosine-protein kinase FLT3 (FLT3, Homo sapiens, UniProt P36888, R834Q) | cell-free assay | competition with immobilised ligand | 100
Serine/threonine-protein kinase PAK 5 (PAK5, Homo sapiens, UniProt Q9P286) | cell-free assay | competition with immobilised ligand | 100
Leucine-rich repeat serine/threonine-protein kinase 2 (LRRK2, Homo sapiens, UniProt Q5S007, G2019S) | cell-free assay | competition with immobilised ligand | 100
Ankyrin repeat and protein kinase domain-containing protein 1 (ANKK1, Homo sapiens, UniProt Q8NFD2) | cell-free assay | competition with immobilised ligand | 92
Serine/threonine-protein kinase B-raf (BRAF, Homo sapiens, UniProt P15056, V600E) | cell-free assay | competition with immobilised ligand | 86
Membrane-associated tyrosine- and threonine-specific cdc2-inhibitory kinase (PKMYT1, Homo sapiens, UniProt Q99640) | cell-free assay | competition with immobilised ligand | 100
Phosphatidylinositol 4-phosphate 5-kinase type-1 alpha (PIP5K1A, Homo sapiens, UniProt Q99755) | cell-free assay | competition with immobilised ligand | 100

Study 4
Target: Tyrosine-protein kinase receptor TYRO3 (TYRO3, Homo sapiens, UniProt Q06418)
Observed: enzyme activity
Action: inhibitor
Concentration: 0.5 µM
Baseline: control
Structure (SMILES) | remaining activity [%]
Cc1nc2cc3nc(-c4cccs4)cnc3cc2n1C | 103
c1ccc(-c2cnc(Nc3ccc(OCCN4CCCC4)cc3)s2)cc1 | 90.9
COc1cc2ncnc(Nc3cccc(Cl)c3)c2cc1OC | 96.7
Cc1cc2ncc(-c3ccccc3)nc2cc1C | 90.9
O=C(NC(NC(=S)Nc1ccc(F)c([N+](=O)[O-])c1)C(Cl)(Cl)Cl)C(c1ccccc1)c1ccccc1 (stereo not drawn) | 108
O=C1c2ccccc2-c2n[nH]c3cccc1c23 | 88.4
O=c1cc(-c2cccc3c2Sc2ccccc2S3)oc(N2CCOCC2)c1 | 105
CCN(CC)CCNC(=O)c1c(C)[nH]c(/C=C2\C(=O)Nc3ccc(F)cc32)c1C | 28.3
N#Cc1c(NC(=O)c2cccc3ccccc23)sc2c1CCCC2 | 101
COc1cc2ncnc(Nc3ccc(O)c(Br)c3)c2cc1OC | 78.6
CCN(CC)CCNC(=O)c1c(C)[nH]c(/C=C2\C(=O)Nc3ccc(Cl)cc32)c1C | 23.2
O=C1C(Cl)=C(N2C(=O)CCC2=O)C(=O)c2ccccc21 | 114
O=C(Nc1cccc(Nc2nccc(Nc3cccc(C(F)(F)F)c3)n2)c1)C1CC1 | 93.8
Ic1cccc(CSc2nnc(-c3ccncc3)o2)c1 | 103
Nc1cccc(-c2cc3c(Oc4cccc(O)c4)ncnc3[nH]2)c1 | 52.1
CCN(CC)C(=O)c1ccc(Nc2nc(OCC3CCCCC3)c3[nH]cnc3n2)cc1 | 90.4
N#C/C(=C\c1ccc(O)c(O)c1)C(=O)NCc1ccccc1 | 109
C[C@@H]1CCN(C(=O)CC#N)C[C@@H]1N(C)c1ncnc2[nH]ccc12 | 103
Cn1nc2c3c(cccc31)C(=O)c1ccccc1-2 | 99.8
COc1cc2c(cc1OC)-c1[nH]nc(Nc3cccc(F)c3)c1C2 | 97.2
c1ccc(-c2[nH]ncc2-c2ccnc3ccccc23)nc1 | 124
CN(C)C[C@H]1CCn2c(c(C3=C(c4cn(C)c5ccccc45)C(=O)NC3=O)c3ccccc32)C1 | 99.3

Some of these lines once more (study 3):
target | observed | method | remaining binding [%]
Mitogen-activated protein kinase 4 (MAPK4, Homo sapiens, UniProt P31152) | cell-free assay | competition with immobilised ligand | 95
Serine/threonine-protein kinase PAK 5 (PAK5, Homo sapiens, UniProt Q9P286) | cell-free assay | competition with immobilised ligand | 100
Phosphatidylinositol 4,5-bisphosphate 3-kinase catalytic subunit alpha isoform (PIK3CA, Homo sapiens, UniProt P42336, E545A) | cell-free assay | competition with immobilised ligand | 95
Receptor-type tyrosine-protein kinase FLT3 (FLT3, Homo sapiens, UniProt P36888, R834Q) | cell-free assay | competition with immobilised ligand | 100
cAMP-dependent protein kinase catalytic subunit alpha (PRKACA, Homo sapiens, UniProt P17612) | cell-free assay | competition with immobilised ligand | 100
Beta-adrenergic receptor kinase 1 (GRK2, Homo sapiens, UniProt P25098) | cell-free assay | competition with immobilised ligand | 73
Cyclin-dependent kinase 4 (CDK4, Homo sapiens, UniProt P11802) | cell-free assay | competition with immobilised ligand | 81
